# Measured values collected from several papers.
# Parts stem from different laboratories: compare values within a part only. Positions count from the first letter of the parent shown.

# Series 1 — method: RNA Bind-n-Seq; molecule type: RNA; sample: in vitro; tested at: 200 nM; setting: whole 134-nt RNA, ends assumed; with: 150 mM LiCl; reference: input library; direction: higher = stronger binding; each molecule: 7-deaza-guanosine replaces G
# Target: Fragile X messenger ribonucleoprotein 1, C-terminal low-complexity region (Fmr1, Mus musculus, UniProt P35922)
Sequence,log2 enrichment
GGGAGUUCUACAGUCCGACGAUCUGGGAGGUGGAUUUUGUUUAUUUUUUUAGCUCAUUUCCAGGGGUGGGAAUUUUUUUUUAAUAUGUAUCAUGAAUAAAGUUGUUUUUGAAAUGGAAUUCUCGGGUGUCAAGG,-0.0512
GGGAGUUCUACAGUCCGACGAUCCAAGUCCUGUGCUACACAUCGUAUGUACCGAAUCGGGGCCGGGCCGGGGCCGGGGAAAGUAUUAUGUUACGCCGUUCGGAUCUGCACUUCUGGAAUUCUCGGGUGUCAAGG,0.0516
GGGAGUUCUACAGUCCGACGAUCCUGUGCUACACAUCGUAUGUACCGAAUCGGUUUUUUUGGGGUUUUUUUGGUUUUUUUGGGGAAAGUAUUAUGUUACGCCGUUCGGAUCUGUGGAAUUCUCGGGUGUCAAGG,0.575
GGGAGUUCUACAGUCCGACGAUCGUCCUGUGCUACACAUCGUAUGUACCGAAUCGGGUUUUUUUGGGUGGGAAAAAAAGGGAAAGUAUUAUGUUACGCCGUUCGGAUCUGCACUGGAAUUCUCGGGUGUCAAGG,-1.69
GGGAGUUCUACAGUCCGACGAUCUGGCCCUGGUGGCAUGCGGGGAGGAAGAGGUGGCCUCAUGGAUCGUGGUGCUCCCGGUGGAAUGUUCAGAGGUGGCCGUGGUGGAGACAGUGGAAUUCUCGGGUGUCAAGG,1.4
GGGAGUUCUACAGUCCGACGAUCCAAGUCCUGUGCUACACAUCGUAUGUACCGAAUCGGAAAAGGGGAAAAGGAAAAGGAAAGUAUUAUGUUACGCCGUUCGGAUCUGCACUUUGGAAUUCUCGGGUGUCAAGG,-1.38
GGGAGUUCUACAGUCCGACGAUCCUGUGCUACACAUCGUAUGUACCGAAUCGGGGCCCCCCGGGGCCCCCCGGGGCCCCCCGGGAAAGUAUUAUGUUACGCCGUUCGGAUCUGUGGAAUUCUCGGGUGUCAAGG,-2.67
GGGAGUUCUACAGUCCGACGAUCCCUCAAGUCCUGUGCUACACAUCGUAUGUACCGAAUCGGAAAGGAAAGGAGGAAAGUAUUAUGUUACGCCGUUCGGAUCUGCACUUCCAGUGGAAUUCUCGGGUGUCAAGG,-0.584
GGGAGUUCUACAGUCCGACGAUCGUCCUGUGCUACACAUCGUAUGUACCGAAUCGGGGAAAAAGGGGAAAAAGGGGUGGGGAAAGUAUUAUGUUACGCCGUUCGGAUCUGCACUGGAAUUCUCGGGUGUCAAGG,-0.717
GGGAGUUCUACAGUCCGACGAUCACCAUGCAGGUGGGCAUCUUUGGGAAGUGGGGCAAGGGGGGGAUAGGGAGGGGGGUCACACUUUGGGAACAGGUGGUCCCAGGUCGUUUCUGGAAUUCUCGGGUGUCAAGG,1.37
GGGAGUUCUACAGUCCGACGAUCCUCAAGUCCUGUGCUACACAUCGUAUGUACCGAAUCGGGUGGGUUUGGGUGGGAAAGUAUUAUGUUACGCCGUUCGGAUCUGCACUUCCAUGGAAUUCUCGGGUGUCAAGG,-0.0081

# Series 2 — target: CCNE1, cyclin fold, Cln2 fusion (human); method: yeast growth competition, sequencing; sample: yeast; setting: weak parent motif; reference: not given; direction: higher = stronger binding
# Parent: SLBP docking peptide (human); ARYKRKLLINDFG
Change,normalised enrichment score
D11S,0.0444
D11E,0.613
N10S,0.665
F12Q,0.111
I9G,0.779
N10Y,0.757
K4E,-0.192
L8V,0.914
A1D,0.808
L8G,0.768
F12V,-0.056
G13T,-0.111
L7M,0.353
A1T,1.26
K4M,0.983
N10W,1.81
R2Y,1.25
D11C,1.18
R2P,0.715
D11M,2.18

# Series 3 — method: DHFR PCA, dose-response; sample: yeast; setting: Hill fit, mean, not affinity; with: (+)-ABA, dose series; direction: lower = more sensitive
# Target: ABI1, truncated, D143A, DHFR fusion (Arabidopsis thaliana, UniProt P49597)
# Parent: PYL1, truncated, DHFR fusion (Arabidopsis thaliana, UniProt Q8VZS8); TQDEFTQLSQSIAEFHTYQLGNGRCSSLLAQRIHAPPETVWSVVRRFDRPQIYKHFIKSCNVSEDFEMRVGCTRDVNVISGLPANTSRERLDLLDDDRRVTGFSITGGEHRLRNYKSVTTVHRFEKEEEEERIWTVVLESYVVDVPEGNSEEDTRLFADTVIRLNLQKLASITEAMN
Change,ABA EC50 [µM]
E64V,3.96
N61Y,2.57
E64S,2.26
E67N,2.72
S150F,66.1
E64T,2.85
T106S,34.3
F56G,434
L82A,119
L164E,38.4
N22H,1.84
N77M,3.12
D96G,181
I105V,3.28
N114A,50.5
Y18F,13.5
E151G,7.01
V118H,8.55
I79F,4.7
S171W,6.23
D144R,90.8
K116G,168
I105T,37.9
L28C,14.6
R88F,2.35

# Series 4 — method: competition protein-binding microarray; molecule type: double-stranded DNA, one strand shown; sample: in vitro; tested at: 2 µM; with: Cbf1 competitor, 0.05 µM; direction: higher = stronger binding
# Target: Phosphate system positive regulatory protein PHO4, full length, GST-tagged (PHO4, Saccharomyces cerevisiae, UniProt P07270, residues 1-312)
# Setting: whole 60-bp probe, lowest competitor level
# Target sequence (chain): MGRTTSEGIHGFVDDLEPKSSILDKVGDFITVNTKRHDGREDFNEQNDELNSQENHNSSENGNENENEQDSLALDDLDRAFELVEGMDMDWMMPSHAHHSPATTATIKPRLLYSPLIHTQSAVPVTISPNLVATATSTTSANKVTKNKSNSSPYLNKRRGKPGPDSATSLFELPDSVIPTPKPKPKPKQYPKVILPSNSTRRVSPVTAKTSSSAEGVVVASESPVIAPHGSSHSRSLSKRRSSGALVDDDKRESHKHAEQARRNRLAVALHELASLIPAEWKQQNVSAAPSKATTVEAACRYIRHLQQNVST
Sequence,fluorescence intensity [a.u.]
TGCGCAACAACTTGGCATGTGGGTGTATGTCTAGAAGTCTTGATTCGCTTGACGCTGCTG,10300
CTTTCCCGATCTTTTCACGTGACCTTAGCACATTTGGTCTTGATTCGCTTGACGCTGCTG,11800
ATCCCAATACAATTTAACGTGGGACCACCTACCATGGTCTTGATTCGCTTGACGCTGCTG,7870
GATCCGTCTACGACTCCCGTGGTGAGCCAACCGTCGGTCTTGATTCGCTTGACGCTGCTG,5940
TGCGCAACAACTTTTCACGTGCGCTTATGTCTAGAAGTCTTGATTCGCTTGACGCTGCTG,13200
CTGTATACCTAATGAATCGTGGGTATTGTCTTCGTCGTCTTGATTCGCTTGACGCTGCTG,7160
AGGCTCGCTGGTCAACACATGCTGTGAGCAGGCCTGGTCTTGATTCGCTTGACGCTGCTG,8820
TTGACGCTGTGTCTCCTCGTGTGAAATCGCAGTACAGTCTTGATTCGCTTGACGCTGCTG,8060
TAATAGAGATATCACCACGTGTGGAGAATAGATTCAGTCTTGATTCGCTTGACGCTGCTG,18300
CGGGGTTAAGTTTGGAAAGTGGGTGGCTTGCAGCAGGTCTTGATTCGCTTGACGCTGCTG,4570
CGGGGTTAAGTTTGGTAAGTGGGTGGCTTGCAGCAGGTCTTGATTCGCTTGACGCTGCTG,4480
AGTTGTAAGAATTTGCACGGGCCCACAAATCCGACAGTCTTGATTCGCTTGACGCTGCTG,7630
CATACCCAACCTTGAGCCGTGGGTGAAGATATTTGTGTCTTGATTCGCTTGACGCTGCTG,5260
CAAAATGGCAACTGGCACGTGAAGCTGTCGATATTGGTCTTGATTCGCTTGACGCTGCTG,17600
CGGGGTTAAGTTTTTCACGTGTAGTGCTTGCAGCAGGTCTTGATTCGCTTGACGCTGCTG,9940
CTTCTGTAAATTTGTCACAGCACTTGACGCGCCCCGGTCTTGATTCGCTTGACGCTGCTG,3470

# Series 5 — method: RNA Bind-n-Seq; molecule type: RNA; sample: in vitro; tested at: 365 nM; reference: no-protein control; direction: higher = stronger binding
# Target: RNA binding protein fox-1 homolog 2, RRM domain, GST-SBP tag (RBFOX2, Homo sapiens, UniProt O43251-10, residues 100-194)
# Setting: natural RNA segment, single round, ends assumed
# Residues (chain): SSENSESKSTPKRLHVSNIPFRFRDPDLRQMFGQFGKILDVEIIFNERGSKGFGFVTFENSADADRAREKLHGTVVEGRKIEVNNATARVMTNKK
Sequence,RBNS enrichment (R)
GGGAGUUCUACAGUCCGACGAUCACCUGUAAUGGGCUCUGACGCCCUCUUCUGAUGUGUGUCUGAAGACAGCUGCAGUGGACUCAUAAGUAAAAAGACCUCUUCCUUUGGCUUGGGGUACACCUUUGGAUGCUUGGAAUUCUCGGGUGCCAA,0.481
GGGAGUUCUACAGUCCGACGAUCCAUUCUUGUAUUUGACUAUUUAAUCCUUUCUACUUGUCGCUAAAUAUAAUUGUUUCAGUCCUAUGGCAUGGUGAUAGCAUAUGUGUUCAGGUUUAUAGCUGUUGUGUUUAUGGAAUUCUCGGGUGCCAA,0.669
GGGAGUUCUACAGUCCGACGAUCUUAGGUCUGUGUCCUGCACAGUGUUCAAAACCAUUAAAUGUGUUCUUUGUAGCAGGAUGGUACACAGCCAUCAGCAGAAUGAGUUAAAACCAACAAUGAAUUCAAUAUACUGGAAUUCUCGGGUGCCAA,0.438
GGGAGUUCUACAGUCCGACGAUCUGAAAGCAAACAAUGGCUUGUAAAGUCAUUUGAAGAGACUUUCCAAUAUGAAUUCAAAAUUCCACUCUUAUCUGAUAGUUUGAGUCAUGGUCUUAGAUACCAGCUACCUAUGGAAUUCUCGGGUGCCAA,0.314
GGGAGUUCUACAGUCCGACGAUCUGAAACCUUUUCAGAAUCAUGGCAGAGGGGCGUGGCGUGGUGCUACUGAGAAGGUCCUCCUUCCUCUUGACUUUGUGGUCUGAAACCUGGUCUUACUGUCCAUGUGUGUUUGGAAUUCUCGGGUGCCAA,0.549
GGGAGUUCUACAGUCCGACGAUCAUGCAUACAUUCCACUACUGACACUCUCAAGGUAAUAUUAAACAUGAUCUAGGUACUAAGAUAUUCACUGUGAACCCGAUCUAUUGCACAAAUGGAGUCCUUUUGUAUUAUGGAAUUCUCGGGUGCCAA,0.26
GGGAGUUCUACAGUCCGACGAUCCACACCGGUGCUGGCCACACCAGCCCCCUUUCACCUCCAGUGCCACAAUAAACCUGUACCCAGCUGUUCUUGUGUGCCCUUCCCCUGUGCAUCCGGAGGGGCAGAAUUUGUGGAAUUCUCGGGUGCCAA,0.959
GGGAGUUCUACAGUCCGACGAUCGGGUUCAGCUUGGAGGUGACACCUCUUUGGUCUACAUUUGUACAAUGGAUGCAUCAAGUUUCUAAAUUUUAUUUCCUGCCUAAAGAAACCAAAUUGUCCCUCAGCAUCCUUGGAAUUCUCGGGUGCCAA,0.559
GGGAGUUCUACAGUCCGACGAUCAAAGGAGAUUCCUCAGACUCAUCCAGCCCUUGGGUGCUGACCAGCAGAGUCACUAGUGGAUGCUGAAGUUACAUGAGCUACAUGUUAAAUAUUUAAAGUCUCCAAAAUAAUGGAAUUCUCGGGUGCCAA,0.43
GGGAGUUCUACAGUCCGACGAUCCAGCUUACAUCUGGUCACCCCAUCUGAUUCCUGCCACACAGACUCCAUCGGUUUCCUCCAGGGCAGCGCCCCACUUCGCCCCUUCCGCAGUGGAGAAGGGCAGCCAAGUUUGGAAUUCUCGGGUGCCAA,0.318
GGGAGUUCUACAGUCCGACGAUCUAAGAAUCCUGCUGCUCUGGGGGAGGCGGAAGGAGAGCUGGAAAGUCUGGAGUAUCGCUCCGUUCCCUGGCAGAAGGUUCCAGCCAGGAGGAUGUGCUGAAGAUGGUCUGUGGAAUUCUCGGGUGCCAA,1.26
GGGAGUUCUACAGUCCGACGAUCUGGAAAUGAGGUCUUAGGCUCUUCUUUAAAUGUGUGUACUUUUAUCUGUGAGAGACUGACUAUAGCAGAAGCGGAUUCAAAGAAGACAGACCUUGACCAAAGAUGCUGAAUGGAAUUCUCGGGUGCCAA,0.464

# For quick reference, copied from above (series 2):
Change,normalised enrichment score
F12V,-0.056
A1D,0.808
G13T,-0.111
N10Y,0.757
K4M,0.983
N10W,1.81
D11M,2.18
L7M,0.353
L8V,0.914
D11C,1.18
I9G,0.779
D11E,0.613
